# Measurements collected from several papers.
# Each line is one published result; not all experiments were run side by side. “And” joins repeats or separate records; there may be more than shown. Numbers after ± are the reported error.
Structure (SMILES),test,test system,conditions,tissue uptake
N#C[C@@H]1CCCN1C(=O)CNC(=O)c1ccnc2ccc(OCCCN3CCN(C(=O)CCc4ccc5c(c4)CN4CCN(Cc6cc(CCC(=O)O)ccc6O)CC(=O)[O][Al-]([18F])([O]C(=O)C4)[O]5)CC3)cc12 (some centres unmarked),,"BALB/c nude mice, U-87 MG xenograft, heart","1 h, blocking, together with: DOTA-FAPI-04 40 nmol/mouse co-injected",0.47 ± 0.23 %ID/g
CC(C)C[C@H](NC(=O)[C@@H](CCCCNC(=O)[C@@H](Cc1ccccc1)NC(=O)CCCCCCCNC(=O)CN1CCN(CC(=O)O)CCN(CC(=O)O)CCN(CC(=O)O)CC1)NC(=O)[C@H](Cc1ccc(O)cc1)NC(=O)[C@H](CO)NC(=O)[C@H](Cc1c[nH]c2ccccc12)NC(=O)[C@H](Cc1c[nH]cn1)NC(=O)[C@@H]1CCC(=O)N1)C(=O)N[C@@H](CCCNC(=N)N)C(=O)N1CCC[C@H]1C(=O)NCC(N)=O [indium-111 labelled],biodistribution,"male athymic nude mice, DU-145 prostate cancer xenograft, lung","intravenous, 0.037 MBq, 0.5 h post-injection",1.61 ± 0.24 %ID/g
Cc1cc(C)n(CCN(CCN)CCCCCCNC(=O)[C@@H](N)Cc2c[nH]cn2)n1.[99Tc+].[C-]#[O+].[C-]#[O+].[C-]#[O+],,"BALB/c nude mice, A549 xenograft, pancreas","intravenous, 24 h",0.37 ± 0.06 %IA/g
O=C(NCC1OC2CCC=CCCC2O1)c1ccc([18F])nc1 (centres unmarked),,"healthy female BALB/c nude mice, muscle","intravenous, 7.4 MBq per mouse, 120 min",0.3 ± 0.02 %ID/g
COc1ccc2c(c1)C(C)(C)C(/C=C/C1=C(Oc3ccc(C(=O)NCCCCOc4cc(CN(Cc5ccccn5)Cc5ccccn5)cc(CN(Cc5ccccn5)Cc5ccccn5)c4)cc3)C(=C/C=C3/N(CCCCS(=O)(=O)[O-])c4ccc(OC)cc4C3(C)C)CCC1)=[N+]2CCCCS(=O)(=O)[O-].O=[N+]([O-])[O-].O=[N+]([O-])[O-].[99Tc+].[C-]#[O+].[C-]#[O+].[C-]#[O+].[Zn+2],,"BALB/c mice, S. aureus myositis, adipose tissue",12 h post-injection,0.16 %ID/g and 0.59 %ID/g and 0.42 %ID/g and 0.65 %ID/g
COc1ccc(Nc2nc(Nc3ccc(OCCOCC[18F])cc3)ncc2Br)cc1,,"ICR mice, S180 tumour-bearing, liver","intravenous, 370 kBq, 15 min",3.36 ± 0.56 %ID/g
O=C([O-])CN1CCN(CC(=O)[O-])CCN(CC(=O)NC[C@H]2CC[C@H](C(=O)N[C@H](Cc3cnc4ccccc4c3)C(=O)NCCCC[C@H](NC(=O)N[C@@H](CCC(=O)O)C(=O)O)C(=O)O)CC2)CCN(CC(=O)[O-])CC1.[64Cu+2],ex vivo gamma counting,"22Rv1 tumour-bearing mice, bone","intravenous, 0.74 MBq, 1 h post-injection",2.93 %ID/g
CCCC[C@H](NC(=O)CCCCCCCNC(=O)CN1CCN(CC(=O)O)CCN(CC(=O)O)CC1)C(=O)N[C@H]1CC(=O)NCCCC[C@@H](C(N)=O)NC(=O)[C@H](Cc2c[nH]c3ccccc23)NC(=O)[C@H](CCCNC(=N)N)NC(=O)[C@@H](Cc2ccccc2)NC(=O)[C@H](Cc2c[nH]cn2)NC1=O [fluorine-18 labelled],,"C57 mice B16-F10 melanoma, liver","intravenous, 0.37 MBq, 2 h",2.72 ± 0.12 %ID/g
O=C(NCC1OC2CCC=CCCC2O1)c1ccc(COCCOCCOCC[18F])cc1 (centres unmarked),,"healthy female BALB/c nude mice, stomach","intravenous, 7.4 MBq per mouse, 120 min",1.6 ± 0.2 %ID/g
COc1ccc(Nc2nc(Nc3ccc(OCCOCCOCC[18F])cc3)ncc2Br)cc1,,"ICR mice, S180 tumour, intestine","intravenous, 370 kBq, 15 min",2.24 ± 0.12 %ID
CCCC[C@H](NC(=O)COCCOCCNC(=O)CN1CCN(CC(=O)O)CCN(CC(=O)O)CC1)C(=O)N[C@H]1CC(=O)NCCCC[C@@H](C(N)=O)NC(=O)[C@H](Cc2c[nH]c3ccccc23)NC(=O)[C@H](CCCNC(=N)N)NC(=O)[C@@H](Cc2ccccc2)NC(=O)[C@H](Cc2c[nH]cn2)NC1=O [fluorine-18 labelled],,"C57 mice B16-F10 melanoma, lung","intravenous, 0.37 MBq, 1 h",1.07 ± 0.32 %ID/g
